Results from different studies.
Protocols differ between the studies behind these lines. Numbers after ± are the reported error.

SMILES	organism	test	test system	conditions	EC50 [µM]
CC1(CCCCCCCCCCOCCCOP(=O)(O)CO[C@H](CO)Cn2ccc(N)nc2=O)COC1	human gammaherpesvirus 4	qPCR	Akata	3 days	9.94 ± 13.2
CC1CCC2(C(=O)OCc3ccccc3)CCC3(C)C(=CCC4C5(C)CCC(OC6OC(CO)C(OC7OC(C)C(O)C(O)C7O)C(O)C6OC6OC(C)C(O)C(O)C6O)C(C)(C)C5CCC43C)C2C1C (stereo not drawn)	PRRSV	viral replication, immunofluorescence	MARC-145, GD-XH	48 h p.i.	5.02 ± 0.37
CCNC1=C(Cl)C(=O)c2cc3c(cc2C1=O)CCCC3(C)C	Leishmania infantum	parasite growth		72 h, promastigote	12.5
Nc1ccn(C[C@@H](CO)OCP(=O)(O)OCCCS(=O)(=O)CCCCCCCCCCCCC2CCC2)c(=O)n1	human gammaherpesvirus 4	qPCR	Akata	3 days	0.14 ± 0.11
CC(C)CCCc1ccc2c(c1)C(=O)C(Br)=C(Br)C2=O	Leishmania infantum	parasite growth		72 h, promastigote	11.7
Nc1ccn(C[C@@H](CO)OCP(=O)(O)OCCCS(=O)(=O)CCCCCCCCCCC2CCC2)c(=O)n1	human gammaherpesvirus 4	qPCR	Akata	3 days	14.8 ± 25.5
Nc1nc2c(ncn2COCCOC(=O)CCC(=O)OC[C@H](N)C(=O)O)c(=O)[nH]1	human alphaherpesvirus 1	viral cytopathic effect, CPE inhibition			43.5
Nc1ncnc2c1c(C(F)(F)F)cn2[C@@H]1O[C@H](CO)[C@@H](O)[C@H]1O	Trypanosoma equiperdum	parasite growth, resazurin		72 h	0.19
CCOC(=O)[C@@H](C)NP(=O)(CO[C@H](CF)Cn1cnc(N)nc1=O)N[C@H](C)C(=O)OCC	human adenovirus 2	cytopathic effect			> 100
CC(C)Oc1ncnc2c1c(Cl)cn2[C@@H]1O[C@H](CO)[C@@H](O)[C@H]1O	Trypanosoma equiperdum	parasite growth, resazurin		72 h	0.11
CCCCCCSc1cccc(O)c(=O)c1O	human alphaherpesvirus 1	viral replication, plaque reduction	Vero		0.93 ± 0.08
Nc1ncnc2c1ccn2[C@@H]1O[C@H](CO)C[C@H]1O	Trypanosoma equiperdum	parasite growth, resazurin		72 h	0.003
COc1cc(OC(C)=O)c2cc3c(cc2c1OC(C)=O)CCCC3(C)C	Leishmania infantum	parasite growth		72 h, promastigote	16.6
Nc1ncnc2c1c(I)cn2[C@@H]1O[C@H](CO)C[C@H]1O	Trypanosoma equiperdum	parasite growth, resazurin		72 h	0.002
CC1(C)CCCc2cc3c(cc21)C(=O)C=CC3=O	Leishmania infantum		intracellular amastigotes, ex vivo mouse splenic explants	72 h	23 ± 2.1
CC1(CCCCCCCCCCCCCCOCCCOP(=O)(O)CO[C@H](CO)Cn2ccc(N)nc2=O)COC1	human alphaherpesvirus 1	cytopathic effect	HFF, E-377		1.47 ± 1.73
Nc1nc2c(ncn2COCCOC(=O)[C@@H](N)CS)c(=O)[nH]1	human alphaherpesvirus 1	viral cytopathic effect, CPE inhibition			5.4
CCCCSc1ccc(SCCCC)c(O)c(=O)c1O	human alphaherpesvirus 1	viral replication, plaque reduction	Vero		0.26 ± 0.06
CC1(CCCCCCCCCCCCOCCCOP(=O)(O)CO[C@H](CO)Cn2ccc(N)nc2=O)COC1	human alphaherpesvirus 1	cytopathic effect	HFF, E-377		2.38 ± 2.9
O=c1c(O)cccc(SCc2ccccc2)c1O	human alphaherpesvirus 1	viral replication, plaque reduction	Vero		0.59 ± 0.06
Nc1ncnc2c1c(Cl)cn2[C@@H]1O[C@H](CO)C[C@H]1O	Trypanosoma equiperdum	parasite growth, resazurin		72 h	0.0006
CC(C)=CCCC1=CCC2C(=O)c3ccccc3C(=O)C2C1 (stereo not drawn)	Leishmania infantum	parasite growth		72 h, promastigote	69.6
Nc1ncnc2c1ccn2[C@H]1C[C@H](O)[C@@H](CO)O1	Trypanosoma equiperdum	parasite growth, resazurin		72 h	17
Nc1ccn(C[C@@H](CO)OCP(=O)(O)OCCCS(=O)(=O)CCCCCCCCCCCCCC2CCC2)c(=O)n1	human gammaherpesvirus 4	qPCR	Akata	3 days	0.08 ± 0.07
